# Measurements collected from several papers.
# Compare with care: the assays were run in different laboratories. Several values in a cell are separate wells, animals, samples, runs or records. ± gives the spread as reported.
SMILES,test,test system,setting,how to read,quantity,value
C[C@]1(CO)Cc2ncn(-c3ccc(C#N)c(Cl)c3)c2C(=O)O1,,"healthy Japanese adults, plasma",3 mg single dose,,Cmax,0.202 µM
COc1ccc(-c2c(-c3ccc(C#N)c(F)c3)nc(N3CCC(N)CC3)n(C)c2=O)cc1F,item: Fatigue/asthenia,human patients,"oral, dose not given, any grade, dose escalation, NG",,treatment-related adverse event incidence,16%
O=C(Nc1ccccc1)C1CCN(C(=O)Oc2cccnc2)CC1,Bond-Lader VAS,healthy women,"oral, 100 mg","relative to: pre-dose baseline, direction not given",change in contentment score,14
C[C@H]1C[C@@H](N2C(=N)N[C@](C)(c3cccc(NC(=O)c4cccc(C#N)c4)c3Cl)CC2=O)CCO1,,rat,"500 mg/kg, every other day",,monocytes count change,38%
NCCCC[C@@H]1NC(=O)[C@@H](Cc2c[nH]c3ccccc23)NC(=O)[C@H](c2ccccc2)NC(=O)[C@@H]2C[C@@H](OC(=O)NCCN)CN2C(=O)[C@H](Cc2ccccc2)NC(=O)[C@H](Cc2ccc(OCc3ccccc3)cc2)NC1=O,,healthy human volunteers,600 µg twice daily,,subjects with adverse event Dizziness,15%
C[C@]1(O)C[C@@](N)(c2ccc(-c3nc4n(c3-c3ccccc3)COc3ccncc3-4)cc2)C1,,"human, advanced or metastatic solid tumours","16 mg once daily, phase I dose escalation",,patients with serious AE,33.3%
O=S(=O)(Nc1ccccc1)c1ccc(NC(=S)Nc2ccccc2)cc1,item: MO%,"female mouse, blood","oral, 80 mg/kg daily, 14 days",,blood cell fraction,4.86%
CC(C)c1nc(N(C)S(C)(=O)=O)nc(-c2ccc(F)cc2)c1/C=C/[C@@H](O)C[C@@H](O)CC(=O)O,,healthy human subjects,"oral, dose not given, study CL-0537 safety set",,incidence of Vomiting,0%
COc1cc2c(Oc3ccc4[nH]c(C)cc4c3F)ccnc2cc1OCC1(N)CC1,,paediatric recurrent refractory sarcoma,8 mg/kg,,grade 1 or 2 Hypothyroidism,60%
COc1ncccc1-c1cnn2ccc(N3CCN(C(=O)OC(C)C)CC3)nc12,,"mouse, open field test, plasma","oral, 60 mg/kg, 60 min",,drug concentration,15 µM
O=C1Nc2cc3[nH]nc(-c4ccncc4)c3cc2CN1Cc1ccccc1,CTCAE v4.03,advanced solid tumour patients,"intravenous, 0.9 mg/kg, schedules 1/2",,patients with decreased appetite,0%
Cc1cc(NC2CCN(C(=O)OC3CCN(C(=O)/C=C/CN(C)C)C3)CC2)n2ncc(C(C)C)c2n1 (stereo not shown),,dog,"oral, dose not given, daily for 4 weeks",,highest non-severely toxic dose (body surface area),40 mg/m2
CN1CC[C@@H](c2c(O)cc(O)c3c(=O)cc(-c4ccc(C(F)(F)F)cc4Cl)oc23)[C@@H]1CO,item: Lymphopenia,relapsed or refractory haematological malignancies,"oral, dose not given, grade 3 to 4",,adverse event incidence,7.5%
CO[C@H]1C[C@@H]2CC[C@@H](C)[C@@](O)(O2)C(=O)C(=O)N2CCCC[C@H]2C(=O)O[C@H]([C@H](C)C[C@@H]2CC[C@@H](OC(=O)NCCOCCOCCOCCOCCOCCOCCOCCOCCC(=O)N3CCc4cc(Cn5nc(-c6ccc7oc(N)nc7c6)c6c(N)ncnc65)ccc4C3)[C@H](OC)C2)C[C@@H](O)[C@H](C)/C=C(\C)[C@@H](O)[C@@H](OC)C(=O)[C@H](C)C[C@H](C)/C=C/C=C/C=C/1C,"phase 1 dose escalation, item: rash",advanced solid tumour patients,"intravenous, 12 mg weekly, grade ≥3",,TRAE incidence,0%
COc1ccc(CCC2CCCC(CCc3ccc(OC)cc3)N2C[C@@H](O)CO)cc1.Cl (stereo in doubt),,rabbit Purkinje fibres,"0.03 µM, cycle length 1 s",relative to: baseline,resting membrane potential change,-0.2 ± 0.3 mV
CC(C)[C@@H]1NC(=O)CNC(=O)[C@H](CC(N)=O)NC(=O)[C@H](CCCNC(=N)N)NC(=O)[C@H](Cc2ccc(O)cc2)NC(=O)[C@H](C(C)C)NC(=O)[C@@H](NC(=O)[C@@H](NC(=O)[C@H](CC(N)=O)NC(=O)[C@H](Cc2c[nH]c3ccccc23)NC(=O)[C@H](C)NC(=O)[C@H](Cc2ccccc2)NC(=O)CN)C(C)C)CSSC[C@@H](C(=O)N[C@@H](Cc2cnc[nH]2)C(=O)N[C@@H](CCCNC(=N)N)C(=O)N[C@@H](CCCNC(=N)N)C(=O)N[C@@H](C)C(=O)N[C@@H](CC(N)=O)C(N)=O)NC(=O)[C@H](C(C)C)NC(=O)[C@H](CCCNC(=N)N)NC1=O,HPLC,mouse mammary gland homogenate,"2560 µM, 12.00 h, 37 °C, 50 mg/mL tissue",,remaining peptide,34.6% and 36.3% and 40.9%
CN1CCN(S(=O)(=O)c2cc([N+](=O)[O-])ccc2N(CCOS(C)(=O)=O)CCOS(C)(=O)=O)CC1,,"naive NOD/SCID mice, pooled blood","intraperitoneal, 25 mg/kg, week 4",,alkaline phosphatase,82 U/L
CCc1ccc(CC/C=C/c2ccc3c(c2)C(=O)CC3)cc1,,"Sprague-Dawley rat, female","oral, 30 mg/kg/day, 14 days",,Reticulocyte percentage,2.65%
Cc1cc(C)c(CNC(=O)c2cc(Cl)c3c(c2C)O[C@@](C)([C@H]2CC[C@H](N(C)C)CC2)O3)c(=O)[nH]1,,"human, relapsed/refractory NHL","concentration not given, all TEAEs, grade 5",,Hypotension incidence,0%
COc1ccc(C[C@@H]2NC(=O)[C@H]([C@@H](C)O)NC(=O)[C@@H]3[C@@H]4CCN3C(=O)[C@@H]3Cc5cn(c6ccc(F)cc56)CCCCCCN(Cc5ccc(cc5)CCNC(=O)[C@]5(C)CCCN5C2=O)C(=O)CCC(=O)N[C@@H](C)C(=O)N[C@H](CNC(=O)CCCCC[N+](C)(C)C)C(=O)N[C@@H](Cc2cccc(c2)CNC(=O)CO4)C(=O)N3)cc1,item: Nausea,humans,"concentration not given, Study-001",,participants with adverse event,2%
CC/C(=C(\c1ccccc1)c1ccc(OCCN(C)C)cc1)c1ccccc1,,"CD-1 mouse, male, lung","intraperitoneal, 1 mg/kg",,half-life,5.8 h
CCCCCCCC(=O)N[C@@H](CCCCN)C(=O)N[C@@H](CCCCN)C(=O)N[C@@H](C)C(=O)N[C@@H](CC(C)C)C(=O)N[C@@H](CCCCN)C(=O)N[C@@H](CC(C)C)C(=O)N[C@@H](C)C(=O)N[C@@H](CCCCN)C(=O)N[C@@H](CCCCN)C(=O)N1CCC[C@H]1C(=O)N[C@@H](CC(C)C)C(=O)N[C@@H](CCCCN)C(=O)N[C@@H](CC(C)C)C(=O)N[C@@H](CC(C)C)C(=O)N[C@@H](CCCCN)C(N)=O,,"female ICR CD-1 mice, whole blood","intravenous bolus, 10 mg/kg",,AUC(0-inf),976 ± 416 ng·h/mL
CC1(C)C(C=C(Cl)Cl)C1C(=O)OC(C#N)c1ccc(F)c(Oc2ccccc2)c1 (stereo not shown),item: CYP2C19,"human, age 1 year, recombinant human CYP2C19",0.1 µM,,enzyme contribution to clearance,0.52%
[11CH3]Oc1ccc(NC(=O)c2cc([N+](=O)[O-])ccc2Cl)cc1,,heparinized rat blood,5 min,,intact radiotracer,52%
N#C/N=C1\SCCN1Cc1ccc(Cl)nc1,,soil,"0 days, nominal 10",,concentration,5.2 mg/kg dry soil
COc1ccc2c(c1)CN(C(=O)CCN1CCC(Cc3ccccc3)CC1)CC[S@@+]2[O-],ventricular rhythm,"dogs, chronic AV block","intravenous, 3 mg/kg",,QT interval,no effect
C[C@@H](NC(=O)N1C(=O)[C@H](Cc2ccnc(N)c2)[C@H]1C(=O)O)C1CCCCC1,,healthy adult Chinese volunteers,"continuous intravenous infusion, 1.0 mg/kg/h, 5-day infusion, CTCAE 5.0 grading",,incidence of infusion site pain,0%
CCC[C@@](N)(CO)CCc1ccc(OCCCCCC(C)C)cc1,,"dog, male hounds, plasma","oral capsule, 2.5 mg/kg, geometric mean",,AUC(0-inf),3.22 µM·h
CCN(CCO)CCCC(C)Nc1ccnc2cc(Cl)ccc12 (stereo not shown),,newly diagnosed glioblastoma patients,"oral, 800 mg/dose, grade 2, with: radiotherapy and temozolomide",,fatigue patients,66%
COc1cc(-c2coc3cc4c(c(OC)c3c2=O)OCO4)cc(OC)c1OC,,"Sprague Dawley rat, plasma","oral, 10 g lyophilized powder/kg, high dose",,Tmax,2.29 ± 0.95 h
CC(C)[C@H](O)C(=O)N[C@H]1Cc2ccc3c(c2)[C@]2(C4=C(c5nc(CO)co5)N=C(O4)[C@H](C(C)(C)C)NC1=O)c1cc(F)ccc1N[C@@H]2O3,,"NSG mice, female, MDA-MB-231-BrM2 xenograft, mammary fat pad","intravenous, 10 mg/kg, single MTD dose, with: paclitaxel 40 mg/kg",,Cmax,2050 ng/mL
CCN1CCN(Cc2ccc(Nc3ncc(F)c(-c4cc(F)c5nc6n(c5c4)[C@H](C)CCC6)n3)nc2)CC1,,advanced solid tumour patients,"dose not given, Phase Ia monotherapy",,"Hypercholesterolemia incidence, grade ≥3",0%
O[C@H]1CCCN[C@@H]1CCCn1cnc2c(Cl)c(Cl)ccc21,,"healthy humans, plasma","oral, 150 mg, with: nintedanib 150 mg",,Vd/F at steady state,859 L
O=C(c1ccc(F)c(F)c1Nc1ccc(I)cc1F)N1CC(O)([C@@H]2CCCCN2)C1,,human patients,"oral, dose not given, dose escalation, tablet",,serious adverse events,33%
Clc1ccc(-c2ccccc2)cc1,,"Sprague-Dawley rats, female, serum","inhalation, 23 µg/rat, 2 h after exposure",,potassium,7 ± 3 mmol/L
Cc1cccc(Cn2nc(C3CC3)c3c(NC(=O)c4cnc5cc(OCCN6CCN(C)CC6)ccn45)cccc32)n1,item: Pruritus,human advanced solid tumours,"oral, dose not given, all-causality,, all doses",,adverse events incidence,21.1%
CC(=O)c1c(C)c2cnc(Nc3ccc(C4CCN(CCS(C)(=O)=O)CC4)cn3)nc2n(C2CCCC2)c1=O,,HR+/HER2- advanced breast cancer patients,"oral, dose not given, all grades",,incidence of ALT increased,26%
